Experimental data collected from several papers.
Each numbered part is a random draw from the data of one study; scales do not carry over between parts. Changes are numbered by the printed parent chain.

Block 1 — technique: RNA Bind-n-Seq; molecule type: RNA; matrix: in vitro; tested at: not given; relative to: input RNA pool; direction: higher = stronger binding
Target: RING finger protein unkempt homolog, zinc fingers 1-6, GST-SBP tag (UNK, Homo sapiens, UniProt Q9C0B0, residues 30-357)
Chain of UniProt Q9C0B0 (30-357, looked up): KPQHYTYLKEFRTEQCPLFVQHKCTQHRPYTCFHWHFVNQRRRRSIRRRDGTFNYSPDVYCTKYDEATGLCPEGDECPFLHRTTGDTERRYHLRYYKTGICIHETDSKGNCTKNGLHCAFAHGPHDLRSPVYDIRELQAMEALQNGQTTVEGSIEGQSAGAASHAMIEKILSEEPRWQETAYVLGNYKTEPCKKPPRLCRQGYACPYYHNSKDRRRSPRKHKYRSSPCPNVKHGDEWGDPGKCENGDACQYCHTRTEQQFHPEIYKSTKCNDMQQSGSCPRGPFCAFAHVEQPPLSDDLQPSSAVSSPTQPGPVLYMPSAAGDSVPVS
Setting: RNA with constant flanks, human and mouse sites, ends assumed
Shared flanks, not repeated: GGGAGUUCUACAGUCCGACGAUC … CAACAGAGGAUUGAGCAUCA
| Oligonucleotide | bound/input enrichment [ratio] |
| --- | --- |
| GGUUUAAACUUUUAAUUCUGUAUUUCAUGAUUAUAAGUCUUGCUAGAAUUUUUUCUAAUCUUUAGUAGAUUUGAUUAAAUAAUGAUUCACAGAAUUUAGUAACAGAAUCAAACUAAGCCA | 0.837 |
| GAAAAUAUGAUGAACUCUAUCUUUAAGGGUAUAUUUGUUCAUCGAUACCGUGAUGCAAUUGCUGAAAUUCGAGCCAUCUGUAUUGAAGAAAUUGGAGUGUGGAUGAAAAUGUAUAGCGAU | 0.27 |
| GAAGAAUGGAAUGAACAUAAUGCCAAAAUAAUUAAAUAUAUAAGAACUAAGACAAAGCCCCAUUUGUUUUAUAUUCCUGGAAGAAUGUGUCCAGCUACCCAAAAACUAAUAGAAGAGUCA | 3.39 |
| GCUGACACAAUAGAUACAAUUGAAAAGGAAAUAAGAAAAAUCUUCAGUAUUCCAGAUGAAAAGGAGACCAGAUUGUGGAACAAAUACAUGAGUAACACAUUUGAACCACUGAAUAAACCA | 0.883 |
| AGUGUUAAAUUUAACCCAAUUGAGACAUUUCUCUUGGGAAGUUGUGCAUCUGACAGGAAUAUAGUACUGUACGAUAUGAGGCAAGCUACUCCUUUGAAAAAGGUUAUCUUAGAUAUGAGA | 0.396 |
| UCAAAAUUCUUCUCUGCCUACAAAAGUCAUUUCCGGAAUGUCCAUAGUGAAGACUUUGAAAAUAGGAUUCUCCUUAACUGCCCUUACUGUACCUUCAAUGCAGAUAAAAAGACUUUGGAA | 0.19 |
| CCCAGUGCGGCAGCCCCAACGGGGGCUGGGGGCGUGGCCCCAGGCUCAGGGAACAACUCAGGGGGACCCAGCCUCCUGGUGCCACUGCCUGUGAAUCCUCCCAGCUCCCCAACGCCCAGC | 0.132 |
| CCACACAGAACCAGGGCUGCCCCUGUAAUCCCCACAGUAAGAAAGUUGUAUGGCAUAUUCCAACAAGUAUUGGUUCGUCUGGUGUCUUUAGAGCUUUACUCUGUUGAAGUGACUGAUUCU | 0.332 |
| CAAGGGAAGCCCAACUUUGAAGAGUUCUUUGAAAUUCUAACUCCCAAAAUCAACCAGACAUUUAGUGGCAUCAUGACAAUGUUGAACAUGCAGUUUGUCAUCCGGGUGAGGAGAUGGGAU | 0.296 |
| UCUUAUGUAGACUUAUCUUCCCUUACAGAGCUGGUCCACUUAAAACUGGCCCGAGACUUUCCCAUUAACCCCAUUUGUCUUCCUGUGGCUUUGAUAAUAUUUGGGAGAUUCUGUUGUGUA | 0.507 |
| GAUCACUUCAUUUCUAAGUGUUUUAAGUGGGGAGCAAAGUACAUGUUAAAAGCAUGUUGCAUUAGAUAUAAAUUCAGUUUUUUAAACUCUUACCAAUGUAAGAACUGCAGAAAUAUUUUU | 3.28 |

Block 2 — technique: protein binding microarray; molecule type: double-stranded DNA, one strand shown; matrix: in vitro; tested at: not given; relative to: not given; direction: higher = stronger binding
Target: Histone acetyltransferase KAT6A, both winged helices, GST fusion (KAT6A, Homo sapiens, UniProt Q92794, residues 1-181)
Setting: 8-mer, flanks averaged, mean of 2 arrays, mostly near background
Target sequence (chain): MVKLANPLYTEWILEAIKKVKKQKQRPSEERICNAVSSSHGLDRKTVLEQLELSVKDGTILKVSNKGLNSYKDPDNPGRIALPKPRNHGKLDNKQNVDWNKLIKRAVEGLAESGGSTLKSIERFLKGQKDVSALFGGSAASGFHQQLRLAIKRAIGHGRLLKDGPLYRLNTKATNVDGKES
| Oligonucleotide | E-score |
| --- | --- |
| CTCATAGA | -0.125 |
| CCGCTCTC | 0.158 |
| GCCACTTA | -0.0601 |
| AGCGTACC | 0.21 |
| ACGGTTAG | 0.112 |
| CCCTTCAC | -0.145 |
| GCTTACTA | 0.0371 |
| ATGCCGAG | 0.185 |
| AAATGACG | 0.126 |
| ATGGACAA | -0.191 |
| CCAATTCC | -0.124 |
| CACGTGGC | -0.0152 |
| CCGCACAC | 0.161 |
| AATCTTTC | -0.00798 |
| CGGCTAAA | 0.27 |
| ACATCTCG | -0.0819 |
| AACTGGTC | -0.0472 |
| CGCTCTTC | 0.144 |
| AACCCTCA | -0.126 |

Block 3 — target: CCNB1, cyclin fold, Cln2 fusion (human); technique: yeast growth competition, sequencing; matrix: yeast; setting: weak parent motif; relative to: not given; direction: higher = stronger binding
Starting sequence: SLBP docking peptide (human); ARYKRKLLINDFG
| Substitution | normalised enrichment score |
| --- | --- |
| L7G | 0.832 |
| L7S | 0.344 |
| R2I | 0.975 |
| Y3M | 0.873 |
| F12L | 1.21 |
| L7W | -0.0927 |
| G13L | -0.394 |
| K6R | 0.401 |
| D11Y | 1.04 |
| R2M | 0.654 |
| I9D | -0.148 |
| L8R | 0.747 |
| R5F | 0.392 |
| N10C | 0.994 |
| R2S | 0.0299 |
| K4P | 0.152 |
| N10T | 0.919 |
| R5P | 0.0146 |

Block 4 — technique: protein-binding microarray; molecule type: double-stranded DNA, one strand shown; matrix: in vitro; tested at: 250 nM; setting: 60-bp whole probe; together with: salmon DNA 0.4 mg/ml; relative to: random background probes; direction: higher = stronger binding; shared flanks, not repeated: GCCTAGCAC … GTCTTGATTCGCTTGACGCTGCTG
Target: Interferon regulatory factor 7, full length, phosphomimetic (IRF7, Homo sapiens, UniProt Q92985, residues 1-503, S101K/S471D/S472D/S475D/S476D/S477D/S483D/S484D/S487D)
Chain of UniProt Q92985 (whole entry, unmodified, looked up): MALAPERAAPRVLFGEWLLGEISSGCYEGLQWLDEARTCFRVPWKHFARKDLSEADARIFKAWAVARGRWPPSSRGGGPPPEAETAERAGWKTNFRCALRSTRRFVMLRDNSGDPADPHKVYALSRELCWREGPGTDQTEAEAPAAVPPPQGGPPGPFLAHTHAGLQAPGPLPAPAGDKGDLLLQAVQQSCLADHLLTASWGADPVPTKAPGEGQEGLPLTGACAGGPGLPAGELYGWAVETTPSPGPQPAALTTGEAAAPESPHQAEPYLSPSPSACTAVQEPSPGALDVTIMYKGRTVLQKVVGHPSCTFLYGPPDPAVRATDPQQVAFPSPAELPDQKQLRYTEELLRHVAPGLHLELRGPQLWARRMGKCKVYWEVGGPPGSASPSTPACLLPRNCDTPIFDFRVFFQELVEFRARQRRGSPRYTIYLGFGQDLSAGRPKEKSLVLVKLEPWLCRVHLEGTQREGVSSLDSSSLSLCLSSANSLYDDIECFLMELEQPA
| Oligonucleotide | log fluorescence [z-score] |
| --- | --- |
| TTAGGTTTCCTTATCCGTTAGTGCTAG | 2.95 |
| TCATTATTAAAACTTCATACTGTGCTA | 0.941 |
| GAACATACTAATTTCCATTTGTGCTAG | 1.71 |
| TTAGGTCTCGATCTCGGTTAGTGCTAG | 1.85 |
| TTACAACTGGGGTATCGATTAGTGCTA | 0.225 |
| GACGAACTGAGTCTCGGGACGTGCTAG | -0.0282 |
| GACGGTTTCGGTATCGGGGCGTGCTAG | 9.87 |
| TTTCCCATGAGTCTCAATATGTGCTAG | 3.11 |
| CACGAACTGAGTATCGAGACGTGCTAG | 0.077 |
| TCATCTCTCTATTCAGAACTGTGCTAG | 0.892 |
| TTAGGACTGGACTACCGGTTAGTGCTA | -0.283 |
| TTAGGTCTCGGGCTCGGTTAGTGCTAG | 1.15 |
| CATGAACTGTTTCTTGAAAAGTGCTAG | 0.356 |
| TTAGGACTGCTACTGCTTGAGTGCTAG | -0.363 |
| TTAGGTTCCGGGTTCGGTTAGTGCTAG | 4.53 |
| TCACTTTACTCACTCGGACTGTGCTAG | 1.3 |
| GACGGTAGCGGTTTCGGGACGTGCTAG | 2.55 |
| TCATATATACAAACTAAGACTGTGCTA | 0.582 |
| ACTAATTTTCATTTTCCAAAGTGCTAG | 2.26 |
| CAGGGAATTCACCTGCTGACGTGCTAG | -0.479 |
| GACGGTCTCCTCTTCCTGACGTGCTAG | 0.0105 |
| TTAGGTATTCTTTTCCTTTAGTGCTAG | 0.862 |
| GACGATTTGAGTCTCGAGACGTGCTAG | 0.319 |
| TGAGGTCTCGGTTTCGGTTAGTGCTAG | 10.8 |
| TCACAAGTCTTGTTTTACACTGTGCTA | 1.17 |

Block 5 — technique: DHFR PCA, deep sequencing; matrix: yeast; together with: (+)-ABA 58 µM; relative to: wild-type fitted maximum; direction: higher = stronger binding
Target: ABI1, truncated, D143A, DHFR fusion (Arabidopsis thaliana)
Setting: methotrexate growth selection, single substitutions
Starting sequence: PYL1, truncated, DHFR fusion (Arabidopsis thaliana); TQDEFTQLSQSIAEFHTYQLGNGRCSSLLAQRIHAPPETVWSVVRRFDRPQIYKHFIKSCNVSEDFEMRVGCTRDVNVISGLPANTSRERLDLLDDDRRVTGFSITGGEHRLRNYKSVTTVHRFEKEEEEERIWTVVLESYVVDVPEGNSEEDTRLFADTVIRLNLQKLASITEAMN; partner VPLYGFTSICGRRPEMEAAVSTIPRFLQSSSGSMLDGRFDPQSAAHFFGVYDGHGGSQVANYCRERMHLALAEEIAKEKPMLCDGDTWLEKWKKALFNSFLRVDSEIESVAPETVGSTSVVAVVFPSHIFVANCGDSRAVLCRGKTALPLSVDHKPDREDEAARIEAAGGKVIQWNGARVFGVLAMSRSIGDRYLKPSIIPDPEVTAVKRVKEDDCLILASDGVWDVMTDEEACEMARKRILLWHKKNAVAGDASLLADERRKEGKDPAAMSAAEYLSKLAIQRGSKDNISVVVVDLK
| Substitution | relative binding score [%] |
| --- | --- |
| R98H | 84.5 |
| T39D | 81.7 |
| R24I | 76.9 |
| R155V | 78.9 |
| L166V | 9.48 |
| P50M | 2.85 |
| K116P | -11.2 |
| I33P | -1.08 |
| L91N | -0.613 |
| Q19N | 91.3 |
| F124D | 88.3 |
| S171M | 79.1 |
| C60A | 60.1 |
| S26I | 47.3 |
| E129W | 79.1 |
| R99M | 105 |
| V145N | 35.3 |
| R98E | 59.2 |
| G107C | 51.4 |
| R123S | 97.6 |
| K58E | 77.2 |
| A170E | 44.6 |
| R113M | 91.1 |

Mixed results
| Molecule | target | assay | test system | setting | scale | measurement | result |
| --- | --- | --- | --- | --- | --- | --- | --- |
| PhoQ, residues 284 288 289 292 302 303 NLCILV | PhoP, residues 12 14 15 18 19 LHSVQ (Escherichia coli, UniProt P23836) | Sort-seq, refers to: YFP reporter | E. coli | PhoQ-PhoP variant library, together with: 10 µM Mg2+ | relative to: high Mg2+ state, higher = stronger signaling | fold induction | 7.93 |

For quick reference, copied from above (block 4):
| Oligonucleotide | log fluorescence [z-score] |
| --- | --- |
| TTAGGTTTCCTTATCCGTTAGTGCTAG | 2.95 |
| TCATTATTAAAACTTCATACTGTGCTA | 0.941 |
| GAACATACTAATTTCCATTTGTGCTAG | 1.71 |
| TTAGGTCTCGATCTCGGTTAGTGCTAG | 1.85 |
| TTACAACTGGGGTATCGATTAGTGCTA | 0.225 |
| GACGAACTGAGTCTCGGGACGTGCTAG | -0.0282 |
| GACGGTTTCGGTATCGGGGCGTGCTAG | 9.87 |
| TTTCCCATGAGTCTCAATATGTGCTAG | 3.11 |
| CACGAACTGAGTATCGAGACGTGCTAG | 0.077 |
| TCATCTCTCTATTCAGAACTGTGCTAG | 0.892 |
| TTAGGACTGGACTACCGGTTAGTGCTA | -0.283 |
| TTAGGTCTCGGGCTCGGTTAGTGCTAG | 1.15 |
